# Assay results collected from several papers.
# Each numbered part is a random draw from the data of one study; scales do not carry over between parts. Changes are numbered by the printed parent chain.

# Sample 1
# Target: Transcription factor Sp1 (SP1, Homo sapiens, UniProt P08047, residues 1-785, full length assumed)
# Sequence of UniProt P08047 (whole entry, looked up): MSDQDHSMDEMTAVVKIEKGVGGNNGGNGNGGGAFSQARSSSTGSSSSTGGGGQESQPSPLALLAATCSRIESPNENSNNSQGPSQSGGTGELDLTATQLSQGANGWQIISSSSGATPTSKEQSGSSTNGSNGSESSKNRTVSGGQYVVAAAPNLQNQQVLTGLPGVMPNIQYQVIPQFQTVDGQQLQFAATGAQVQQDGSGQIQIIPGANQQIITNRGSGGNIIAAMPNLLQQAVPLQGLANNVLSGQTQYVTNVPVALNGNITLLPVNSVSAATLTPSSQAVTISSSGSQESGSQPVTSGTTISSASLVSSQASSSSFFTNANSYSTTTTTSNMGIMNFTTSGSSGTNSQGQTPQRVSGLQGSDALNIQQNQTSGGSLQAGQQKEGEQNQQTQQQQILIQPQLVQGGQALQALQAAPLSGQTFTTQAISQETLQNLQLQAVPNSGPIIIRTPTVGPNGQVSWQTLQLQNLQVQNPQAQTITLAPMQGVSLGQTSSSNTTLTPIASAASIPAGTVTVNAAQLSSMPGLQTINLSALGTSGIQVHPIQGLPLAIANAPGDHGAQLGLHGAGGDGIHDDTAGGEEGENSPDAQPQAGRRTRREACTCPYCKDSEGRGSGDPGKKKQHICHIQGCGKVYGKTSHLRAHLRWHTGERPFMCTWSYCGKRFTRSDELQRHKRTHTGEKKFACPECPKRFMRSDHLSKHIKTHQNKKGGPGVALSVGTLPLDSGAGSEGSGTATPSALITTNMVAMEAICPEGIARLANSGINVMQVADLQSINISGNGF
# Technique: protein-binding microarray
# Form: double-stranded DNA, one strand shown
# Medium: in vitro
# Tested at: not given
# Setting: k-mer, scored over probes, only values ≥0.25
# Reading: higher = stronger binding
Oligonucleotide,E-score
CGCCCCCC,0.439
CATATACA,0.282
AGTGGGTG,0.354
ATGGGAGG,0.432
ACCCCTCA,0.344
ATACAATA,0.265
GGGGTGGA,0.422
ATGGGGAG,0.351
AAACCCCG,0.354
ATAGGGTA,0.277
CGCCCATC,0.354
AATTGGGG,0.295
CCCTCGCC,0.331
ATGCAACA,0.25
ACACCCCC,0.334
ACACTTTA,0.255
ACTCCCCG,0.253
GGGTAAAC,0.256
CCTAATCA,0.28
GTGTACAA,0.27
GCCCCACC,0.416
ACTCCCAC,0.289

# Sample 2
# Target: CCND1, cyclin fold, Cln2 fusion (human)
# Technique: yeast growth competition, sequencing
# Medium: yeast
# Setting: weak parent motif
# Relative to: not given
# Reading: higher = stronger binding
# Starting sequence: PKMYT1 docking peptide (human); SFEPRNLLSLFED
Change,normalised enrichment score
SFYPRNLLSLFED [E3Y],0.656
SFEPRNLLSLFMD [E12M],0.783
SFEPRNLLSLSED [F11S],1.23
SFEDRNLLSLFED [P4D],1.49
SFEPRNNLSLFED [L7N],0.8
SYEPRNLLSLFED [F2Y],0.646
SFEPSNLLSLFED [R5S],1.23
SFEPRNLLSLFTD [E12T],1.03
SFEPENLLSLFED [R5E],1.27
SAEPRNLLSLFED [F2A],0.576
SFEPWNLLSLFED [R5W],1.49
SFEPRNLLSLQED [F11Q],0.284
SFEPRNPLSLFED [L7P],0.59
SFEPTNLLSLFED [R5T],1.01
SFEPRNLISLFED [L8I],0.909
SFEPRNLLPLFED [S9P],0.238
SFEPRILLSLFED [N6I],1.84
SFEPQNLLSLFED [R5Q],1.51
SFEPRNLLLLFED [S9L],1.23
SFEPRNLLFLFED [S9F],2.5
SFEVRNLLSLFED [P4V],1

# Sample 3
# Target: ABI1, truncated, D143A, DHFR fusion (Arabidopsis thaliana)
# Technique: DHFR PCA, deep sequencing
# Medium: yeast
# Setting: methotrexate growth selection, single substitutions
# With: (+)-ABA 0.032 µM
# Relative to: wild-type fitted maximum
# Reading: higher = stronger binding
# Starting sequence: PYL1, truncated, DHFR fusion (Arabidopsis thaliana); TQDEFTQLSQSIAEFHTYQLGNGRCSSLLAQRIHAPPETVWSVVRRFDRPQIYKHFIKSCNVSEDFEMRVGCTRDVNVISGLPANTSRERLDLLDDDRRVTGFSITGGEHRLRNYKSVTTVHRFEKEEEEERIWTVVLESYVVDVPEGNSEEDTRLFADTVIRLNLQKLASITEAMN
Change,relative binding score [%]
E127Q,40
D48E,3.47
R49L,1.24
E64M,-2.18
L94W,12.5
R123N,10.6
W41Q,0.269
T6A,44.3
E109P,2.64
Y115K,5.07
K126W,14.7
E128N,39.7
H16P,-5.16
K116T,12.9
T39W,1.13
I133S,32.4
L166Y,-2.93
L94A,1.81
N22D,46.3
L20P,32.5
V142Y,-5.47
G102L,-3.61
S104G,0.363
L28T,6.33
Q10W,5.06

# Sample 4
# Target: Sal-like protein 4, full length isoform B (SALL4, Homo sapiens, UniProt Q9UJQ4-2, residues 1-616)
# Technique: universal PBM
# Form: double-stranded DNA, one strand shown
# Medium: in vitro
# Tested at: not given
# Setting: 8-mer, flanks averaged, mean of replicates
# Reading: higher = stronger binding
# Construct (chain): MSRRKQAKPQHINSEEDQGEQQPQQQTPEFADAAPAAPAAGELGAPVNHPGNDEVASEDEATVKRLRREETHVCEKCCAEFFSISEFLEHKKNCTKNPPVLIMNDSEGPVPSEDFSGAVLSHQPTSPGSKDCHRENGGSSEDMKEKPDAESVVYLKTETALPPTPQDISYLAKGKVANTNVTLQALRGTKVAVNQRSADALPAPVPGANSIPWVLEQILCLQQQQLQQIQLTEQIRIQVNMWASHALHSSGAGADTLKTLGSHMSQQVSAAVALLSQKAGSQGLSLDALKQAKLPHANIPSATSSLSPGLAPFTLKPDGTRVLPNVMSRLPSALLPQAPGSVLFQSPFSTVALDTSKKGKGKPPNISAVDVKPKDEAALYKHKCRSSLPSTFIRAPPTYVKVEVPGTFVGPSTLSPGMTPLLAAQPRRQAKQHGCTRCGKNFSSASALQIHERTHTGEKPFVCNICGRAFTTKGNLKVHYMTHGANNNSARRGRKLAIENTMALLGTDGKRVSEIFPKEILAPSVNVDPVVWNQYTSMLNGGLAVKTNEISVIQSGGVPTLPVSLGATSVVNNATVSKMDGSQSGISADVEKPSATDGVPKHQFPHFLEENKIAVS
Oligonucleotide,E-score
ACTGTCAA,0.0459
ACCGTTCT,-0.128
ATAATTCC,0.366
GCCCGAAC,-0.227
TCCATGGA,0.00683
GCGGACTA,-0.0478
CCGTCAGC,-0.219
AGGATGTA,0.154
GTGATTGA,0.185
CGCAGGTA,-0.0422
ACATCTTC,0.00112
AGGCGTGG,-0.28
AAACCGTG,-0.214
AGAGCTAG,-0.0975
ACCGAGTC,-0.183
GACGCATC,-0.0732
AGCCACTC,-0.0862
ATAACCAC,0.216
CCCTAGAC,-0.0468
ACCCATTG,-0.0824
CCGTGTTC,-0.141
CGTGGTAC,-0.036
GACGGCTC,-0.244
AAACTTCG,-0.112
AAATCAGG,0.078

# Sample 5
# Target: UBE2T UBC core domain (UniProt Q9NPD8)
# Sequence of UniProt Q9NPD8 (whole entry, looked up): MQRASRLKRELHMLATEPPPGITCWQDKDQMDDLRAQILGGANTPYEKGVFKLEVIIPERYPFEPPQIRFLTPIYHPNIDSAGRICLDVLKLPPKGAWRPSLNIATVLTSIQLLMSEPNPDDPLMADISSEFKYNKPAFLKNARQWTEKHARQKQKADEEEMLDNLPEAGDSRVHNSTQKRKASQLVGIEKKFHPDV
# Technique: yeast two-hybrid
# Medium: yeast
# Setting: mostly zero background
# Relative to: not given
# Reading: higher = stronger interaction
# B1: MEX3B RING domain (UniProt Q6ZN04); chain SGLRRKGSRDCSVCFESEVIAALVPCGHNLFCMECANRICEKSEPECPVCHTAVTQAIRIF
# B2: RNF166 RING domain (UniProt Q96A37); chain GDSGLEAQYTCPICLEVYHRPVAIGSCGHTFCGECLQPCLQVPSPLCPLCRLPFDPKKVDK
# B3: RNF183 RING domain (UniProt Q96D59); chain EQQGRELEAECPVCWNPFNNTFHTPKMLDCCHSFCVECLAHLSLVTPARRRLLCPLCRQPTVLASGQP
# B4: ANAPC11 RING domain (UniProt Q9NYG5); chain GICRMAFNGCCPDCKVPGDDCPLVWGQCSHCFHMHCILKWLHAQQVQQHCPMCRQEWKFKE
# B5: RNF122 RING domain (UniProt Q9H9V4); chain AKKLQLYGQTCAVCLEDFKGKDELGVLPCQHAFHRKCLVKWLEVRCVCPMCNKPIASPSEAT
# B6: MKRN2 RING domain (UniProt Q9H000); chain FAFQASQDKVCSICMEVILEKASASERRFGILSNCNHTYCLSCIRQWRCAKQFENPIIKSCPECRVISEFVIPSV
# B7: RNF152 RING domain (UniProt Q8N8N0); chain ETLSQDSLLECQICFNYYSPRRRPKLLDCKHTCCSVCLQQMRTSQKDVRCPWCRGVTKLPPGFS
# B8: MYCBP2 RING domain (UniProt O75592); chain TSLKQDADDMCMICFTEALSAAPAIQLDCSHIFHLQCCRRVLENRWLGPRITFGFISCPICKNKINHIVLKD
# B9: DEF8 RING domain (UniProt Q6ZN54); chain AGRLGCSLTEIHTLFAKHIKLDCERCQAKGFVCELCREGDVLFPFDSHTSVCADCSAVFHRDCYYDNSTTCPKCARLSLRK
# B10: TRIM26 RING domain (UniProt Q12899); chain PLRSLEEEVTCSICLDYLRDPVTIDCGHVFCRSCTTDVRPISGSRPVCPLCKKPFKKENIRP
Sequence,lacZ reporter activity
LGTKLEAKYLCSACRNVLRRPFQAQCGHRYCSFCLASILSSGPQNCAACVHEGIYEEGIS (TRAF2 RING domain (UniProt Q12933)),0
B1 (MEX3B RING domain),0
B2 (RNF166 RING domain),0
B3 (RNF183 RING domain),0
B4 (ANAPC11 RING domain),0
B5 (RNF122 RING domain),0
B6 (MKRN2 RING domain),0
B7 (RNF152 RING domain),0
YCEMGSTFQLCKICAENDKDVKIEPCGHLMCTSCLTAWQESDGQGCPFCRCEIKGTEPII (CBLB RING domain (UniProt Q13191)),0
B8 (MYCBP2 RING domain),0
B9 (DEF8 RING domain),0
LDAASGHPLVCPLCHGQYERPCLLDCFHDFCTGCLRGRATDGRLSCPLCQHQTLVKGPSG (Rnf207 RING domain (UniProt Q3V3A7)),0
B10 (TRIM26 RING domain),0
KPDKMEETLTCIICQDLLHDCVSLQPCMHTFCAACYSGWMERSSLCPTCRCPVERICKNH (CHFR RING domain (UniProt Q96EP1)),0
